# Assay results of several laboratories.
# Lines come from different studies, so protocols differ. ± marks the error that the study gave.
# Sequence of UniProt P05177 (whole entry, looked up): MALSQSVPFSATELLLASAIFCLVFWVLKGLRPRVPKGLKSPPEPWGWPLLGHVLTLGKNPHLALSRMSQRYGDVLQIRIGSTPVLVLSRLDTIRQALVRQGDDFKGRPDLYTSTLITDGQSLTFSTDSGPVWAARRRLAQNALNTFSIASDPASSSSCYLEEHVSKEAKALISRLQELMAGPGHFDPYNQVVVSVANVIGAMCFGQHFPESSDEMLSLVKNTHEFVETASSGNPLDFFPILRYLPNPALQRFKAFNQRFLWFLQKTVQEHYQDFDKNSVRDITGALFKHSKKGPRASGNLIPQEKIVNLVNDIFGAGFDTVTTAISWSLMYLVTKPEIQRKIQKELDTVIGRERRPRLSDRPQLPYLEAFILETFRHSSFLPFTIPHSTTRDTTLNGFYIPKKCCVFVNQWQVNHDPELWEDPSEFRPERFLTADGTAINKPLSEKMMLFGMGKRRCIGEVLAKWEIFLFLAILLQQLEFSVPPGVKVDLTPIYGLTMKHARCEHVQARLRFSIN
# Sequence of UniProt P05181 (whole entry, looked up): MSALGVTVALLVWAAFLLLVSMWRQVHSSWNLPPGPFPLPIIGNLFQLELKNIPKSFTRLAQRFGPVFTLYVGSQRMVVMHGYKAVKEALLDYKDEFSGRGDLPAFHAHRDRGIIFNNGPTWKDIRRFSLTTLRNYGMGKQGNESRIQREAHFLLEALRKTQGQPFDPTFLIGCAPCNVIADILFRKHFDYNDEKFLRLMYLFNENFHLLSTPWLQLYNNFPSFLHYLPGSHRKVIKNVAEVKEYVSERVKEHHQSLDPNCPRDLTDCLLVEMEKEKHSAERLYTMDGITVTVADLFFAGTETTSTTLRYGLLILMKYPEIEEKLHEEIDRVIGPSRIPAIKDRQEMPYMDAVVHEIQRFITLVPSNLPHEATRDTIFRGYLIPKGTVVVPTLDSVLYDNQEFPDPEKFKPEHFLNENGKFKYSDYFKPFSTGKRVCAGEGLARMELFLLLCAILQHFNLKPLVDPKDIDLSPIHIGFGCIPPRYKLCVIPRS
SMILES,tested on,assay,test system,conditions,how to read,quantity,result
[64Cu+2].c1cnc(CNCc2ccc(CN3CCCN4CCNCCCN(CC4)CC3)cc2)nc1,CXCR4,,"NOD/SCID mouse, U87 and U87-stb-CXCR4 xenografts, lungs","iv, 90 min, ex vivo",,tissue uptake,7.6 ± 1.11 %ID/g
COc1ccc(C2OC(=O)c3ccc(C(C)C)c(O)c32)cc1OC (stereo not shown),Naegleria fowleri trophozoites,AlamarBlue,ATCC 30215,"48 h, 37 °C",relative to: J774A.1 CC50 over IC50 ATCC 30215,selectivity index,≥ 8.73
CC(=O)OC(CF)Cn1cnc([N+](=O)[O-])c1 (stereo not shown),Salmonella enterica serovar Typhimurium,Ames test,TA100,72 h,,mutagenic potency,41.7 revertants/µg
C=CC(=O)Nc1cc(Nc2nccc(-c3cn(C)c4ccccc34)n2)c(OCC(F)(F)F)nc1N(C)CCN(C)C,"Cytochrome P450 1A2 (CYP1A2, Homo sapiens, UniProt P05177)","substrate, LC-MS",recombinant enzyme,"3 µM, 60 min",,remaining compound,93.7%
[64Cu+2].c1ccc(CNCc2ccc(CN3CCCN4CCNCCCN(CC4)CC3)cc2)nc1,CXCR4,,"NOD/SCID mouse, U87 and U87-stb-CXCR4 xenografts, liver","iv, 90 min, ex vivo",,tissue uptake,84.7 ± 9.78 %ID/g
C[C@]12CC[C@@H]3c4ccc(OCC(=O)N[C@@H](CCCCNC(=O)CN5CCN(CC(=O)[O-])CCN(CC(=O)[O-])CCN(CC(=O)[O-])CC5)C(=O)O)cc4CC[C@H]3[C@@H]1CCC2=O.[68Ga+3],estrogen receptor,,"nude mice, MCF7 xenograft, tumour","dose not given, 2.5 h post-injection, no blocking dose",,radioactivity uptake,2.69 ± 0.62 %ID/g
CC(=O)OC(CCl)Cn1cncc1[N+](=O)[O-] (stereo not shown),Salmonella enterica serovar Typhimurium,"Ames test, Bernstein slope",TA98,,,mutagenic potency,0.69 ± 0.05 revertants/µg
CN1C(=O)[C@@H](Cc2ccc(O)cc2)NC(=O)CNC(=O)[C@H](Cc2ccc3ccccc3c2)NC(=O)[C@H](CCCNC(=N)N)NC(=O)[C@H]1CCCNC(=O)c1ccc(CNC(=O)CN2CCN(CC(=O)O)CCN(CC(=O)O)CCN(CC(=O)O)CC2)cc1 [gallium-68 labelled],,,"adult reference man, from C57BL/6 mice data, osteogenic cells",,,absorbed dose coefficient,0.00801 mGy/MBq
CC(=O)OC(CF)Cn1c([N+](=O)[O-])cnc1C (stereo not shown),Salmonella enterica serovar Typhimurium,"Ames test, Bernstein slope",TA97,,,mutagenic potency,0.3 ± 0.22 revertants/µg
O=C(O)c1cc(Br)c(O)c(Br)c1,"Cytochrome P450 2E1 (CYP2E1, Homo sapiens, UniProt P05181)","p-nitrophenol hydroxylation, inhibitor",,"10 min, with: p-nitrophenol 100 µM",,IC50,1000 nM
N=C(N)NCCC[C@@H]1NC(=O)[C@H](Cc2c[nH]c3ccccc23)NC(=O)[C@@H](CC2CCCCC2)NC(=O)[C@@H]2CCCN2C(=O)[C@@H](NC(=O)CCc2ccccc2)CCCNC1=O,,,"C57BL/6J mouse, plasma spinal cord","intravenous, 1 mg/kg single dose",,MRT(0-last),37.2 min
CCC(=O)N(C)c1ccc(Cl)c(Cl)c1,CHO-WBL,,,"0.063 mg/mL, 3 h, with S9 activation",,cells with one aberration,0%
CCN(CC)CCSC(=S)N1CCN(C(=O)/C=C/c2coc3ccc(F)cc3c2=O)CC1,tomato spotted wilt virus,"viral infection, half-leaf method",Nicotiana glutinosa,500 µg/mL,,curative effect,63.3 ± 6.9%
COc1ccc(C2OC(=O)c3cc4c(c(O)c32)CCCC4)c(OC)c1OC (stereo not shown),Naegleria fowleri trophozoites,AlamarBlue,ATCC 30808,"48 h, 37 °C",relative to: J774A.1 CC50 over IC50 ATCC 30808,selectivity index,≥ 1.49
CC(=O)N[C@H](C(=O)N[C@H](C(=O)N[C@@H](CCCNC(=N)N)C(=O)N1Cc2ccccc2C[C@H]1C(=O)N[C@@H](Cc1ccccc1)C(N)=O)C1CCCCC1)C(C)C,human PBMC,"Bio-Plex multiplex, refers to: MCP-1(MCAF)",,"500 µg/mL, 24 h",,cytokine level,4790 ± 4890 pg/mL
COc1ccc(C2OC(=O)c3ccc(-c4ccccc4)c(O)c32)c(OC)c1OC (stereo not shown),Naegleria fowleri trophozoites,AlamarBlue,ATCC 30808,"48 h, 37 °C",relative to: J774A.1 CC50 over IC50 ATCC 30808,selectivity index,≥ 29.3
COc1ccc(C2CC(c3ccc(C)cc3)=Nc3ccccc3S2)cc1 (stereo not shown),,,"Wistar rat, STZ-induced diabetes","oral, 10 mg/kg once daily, day 7",,body weight,189 ± 4.31 g
CCCCCc1ccc2c(c1O)C(c1ccc(OC)c(OC)c1OC)OC2=O (stereo not shown),Naegleria fowleri trophozoites,AlamarBlue,ATCC 30808,"48 h, 37 °C",relative to: J774A.1 CC50 over IC50 ATCC 30808,selectivity index,≥ 4.68
CN(C)CCCSC(=S)N1CCN(C(=O)/C=C/c2coc3ccc(F)cc3c2=O)CC1,tomato spotted wilt virus,"viral infection, half-leaf method",Nicotiana glutinosa,500 µg/mL,,protective effect,63.8 ± 7.2%

# Some of these lines once more:
SMILES,tested on,assay,test system,conditions,how to read,quantity,result
C=CC(=O)Nc1cc(Nc2nccc(-c3cn(C)c4ccccc34)n2)c(OCC(F)(F)F)nc1N(C)CCN(C)C,"Cytochrome P450 1A2 (CYP1A2, Homo sapiens, UniProt P05177)","substrate, LC-MS",recombinant enzyme,"3 µM, 60 min",,remaining compound,93.7%
[64Cu+2].c1ccc(CNCc2ccc(CN3CCCN4CCNCCCN(CC4)CC3)cc2)nc1,CXCR4,,"NOD/SCID mouse, U87 and U87-stb-CXCR4 xenografts, liver","iv, 90 min, ex vivo",,tissue uptake,84.7 ± 9.78 %ID/g
